Measurements of several laboratories.
Every numbered part comes from another study and shows a few of its results, in no order.
UniProt Q92772, sequence (whole entry, looked up): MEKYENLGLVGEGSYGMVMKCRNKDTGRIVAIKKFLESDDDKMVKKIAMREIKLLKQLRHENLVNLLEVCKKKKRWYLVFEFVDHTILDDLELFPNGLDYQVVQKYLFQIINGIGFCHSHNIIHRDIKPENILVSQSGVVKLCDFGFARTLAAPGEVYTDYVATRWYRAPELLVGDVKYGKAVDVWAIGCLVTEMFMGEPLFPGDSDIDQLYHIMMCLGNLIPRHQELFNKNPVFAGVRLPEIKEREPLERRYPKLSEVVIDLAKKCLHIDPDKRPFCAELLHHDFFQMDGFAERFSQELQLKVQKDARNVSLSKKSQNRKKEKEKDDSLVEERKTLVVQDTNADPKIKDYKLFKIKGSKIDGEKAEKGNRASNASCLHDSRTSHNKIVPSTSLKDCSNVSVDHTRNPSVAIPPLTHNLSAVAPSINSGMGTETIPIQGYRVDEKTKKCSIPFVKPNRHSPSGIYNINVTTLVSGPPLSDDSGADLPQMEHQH
UniProt Q9NYL2, sequence (whole entry, looked up): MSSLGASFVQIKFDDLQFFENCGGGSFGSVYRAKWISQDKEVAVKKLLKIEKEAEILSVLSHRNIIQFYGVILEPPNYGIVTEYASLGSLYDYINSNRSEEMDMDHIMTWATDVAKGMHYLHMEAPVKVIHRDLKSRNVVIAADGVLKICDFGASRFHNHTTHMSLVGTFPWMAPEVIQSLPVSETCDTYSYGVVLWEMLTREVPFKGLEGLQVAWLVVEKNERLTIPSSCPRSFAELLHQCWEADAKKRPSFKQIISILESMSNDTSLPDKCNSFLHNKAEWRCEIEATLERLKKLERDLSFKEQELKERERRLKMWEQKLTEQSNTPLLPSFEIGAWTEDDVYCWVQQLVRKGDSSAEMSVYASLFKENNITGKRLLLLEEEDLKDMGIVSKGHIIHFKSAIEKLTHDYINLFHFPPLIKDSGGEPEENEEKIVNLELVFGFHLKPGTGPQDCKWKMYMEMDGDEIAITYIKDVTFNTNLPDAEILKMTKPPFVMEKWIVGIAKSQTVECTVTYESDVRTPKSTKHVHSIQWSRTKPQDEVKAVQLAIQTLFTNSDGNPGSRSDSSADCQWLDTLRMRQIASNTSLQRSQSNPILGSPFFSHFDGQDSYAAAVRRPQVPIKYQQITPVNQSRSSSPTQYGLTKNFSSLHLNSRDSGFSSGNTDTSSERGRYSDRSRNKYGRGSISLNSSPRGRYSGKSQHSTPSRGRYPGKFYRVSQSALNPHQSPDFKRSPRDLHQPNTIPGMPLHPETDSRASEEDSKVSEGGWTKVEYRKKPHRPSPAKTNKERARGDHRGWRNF
UniProt P09769, sequence (whole entry, looked up): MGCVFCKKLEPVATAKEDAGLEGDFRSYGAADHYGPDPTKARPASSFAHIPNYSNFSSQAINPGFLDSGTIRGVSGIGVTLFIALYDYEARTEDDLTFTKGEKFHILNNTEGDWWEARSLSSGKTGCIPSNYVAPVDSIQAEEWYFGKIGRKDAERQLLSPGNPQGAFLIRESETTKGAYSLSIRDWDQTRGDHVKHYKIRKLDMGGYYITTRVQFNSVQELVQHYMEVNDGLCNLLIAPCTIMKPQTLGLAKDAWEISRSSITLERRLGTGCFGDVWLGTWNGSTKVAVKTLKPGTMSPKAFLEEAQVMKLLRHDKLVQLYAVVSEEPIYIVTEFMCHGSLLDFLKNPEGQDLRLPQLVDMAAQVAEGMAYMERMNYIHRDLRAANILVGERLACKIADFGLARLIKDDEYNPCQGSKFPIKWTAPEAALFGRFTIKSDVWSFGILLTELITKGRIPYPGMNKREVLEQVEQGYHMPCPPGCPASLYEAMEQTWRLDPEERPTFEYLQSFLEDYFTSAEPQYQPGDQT
UniProt Q12852, sequence (whole entry, looked up): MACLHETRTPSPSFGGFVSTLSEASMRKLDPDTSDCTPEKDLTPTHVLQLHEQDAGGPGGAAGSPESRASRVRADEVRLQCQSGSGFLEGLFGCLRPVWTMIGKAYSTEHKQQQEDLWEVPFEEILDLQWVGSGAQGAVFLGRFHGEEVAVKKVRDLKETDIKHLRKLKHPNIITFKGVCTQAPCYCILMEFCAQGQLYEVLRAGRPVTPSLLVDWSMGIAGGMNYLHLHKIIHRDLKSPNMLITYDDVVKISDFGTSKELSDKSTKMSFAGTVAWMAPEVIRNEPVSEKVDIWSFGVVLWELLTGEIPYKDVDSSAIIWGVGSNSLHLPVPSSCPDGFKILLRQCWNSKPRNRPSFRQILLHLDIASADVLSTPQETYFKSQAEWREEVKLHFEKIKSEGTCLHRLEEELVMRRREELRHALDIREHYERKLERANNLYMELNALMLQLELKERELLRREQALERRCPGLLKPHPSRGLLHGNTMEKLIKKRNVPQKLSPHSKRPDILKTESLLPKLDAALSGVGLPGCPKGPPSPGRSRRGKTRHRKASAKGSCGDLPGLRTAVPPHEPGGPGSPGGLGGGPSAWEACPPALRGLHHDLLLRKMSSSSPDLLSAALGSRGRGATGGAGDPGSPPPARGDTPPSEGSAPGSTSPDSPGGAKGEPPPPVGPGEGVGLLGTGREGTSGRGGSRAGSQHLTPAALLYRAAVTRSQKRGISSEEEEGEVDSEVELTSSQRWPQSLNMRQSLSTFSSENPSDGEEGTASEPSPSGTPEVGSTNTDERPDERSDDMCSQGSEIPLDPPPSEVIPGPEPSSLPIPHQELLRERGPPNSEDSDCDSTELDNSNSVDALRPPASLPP
UniProt O75747, sequence (whole entry, looked up): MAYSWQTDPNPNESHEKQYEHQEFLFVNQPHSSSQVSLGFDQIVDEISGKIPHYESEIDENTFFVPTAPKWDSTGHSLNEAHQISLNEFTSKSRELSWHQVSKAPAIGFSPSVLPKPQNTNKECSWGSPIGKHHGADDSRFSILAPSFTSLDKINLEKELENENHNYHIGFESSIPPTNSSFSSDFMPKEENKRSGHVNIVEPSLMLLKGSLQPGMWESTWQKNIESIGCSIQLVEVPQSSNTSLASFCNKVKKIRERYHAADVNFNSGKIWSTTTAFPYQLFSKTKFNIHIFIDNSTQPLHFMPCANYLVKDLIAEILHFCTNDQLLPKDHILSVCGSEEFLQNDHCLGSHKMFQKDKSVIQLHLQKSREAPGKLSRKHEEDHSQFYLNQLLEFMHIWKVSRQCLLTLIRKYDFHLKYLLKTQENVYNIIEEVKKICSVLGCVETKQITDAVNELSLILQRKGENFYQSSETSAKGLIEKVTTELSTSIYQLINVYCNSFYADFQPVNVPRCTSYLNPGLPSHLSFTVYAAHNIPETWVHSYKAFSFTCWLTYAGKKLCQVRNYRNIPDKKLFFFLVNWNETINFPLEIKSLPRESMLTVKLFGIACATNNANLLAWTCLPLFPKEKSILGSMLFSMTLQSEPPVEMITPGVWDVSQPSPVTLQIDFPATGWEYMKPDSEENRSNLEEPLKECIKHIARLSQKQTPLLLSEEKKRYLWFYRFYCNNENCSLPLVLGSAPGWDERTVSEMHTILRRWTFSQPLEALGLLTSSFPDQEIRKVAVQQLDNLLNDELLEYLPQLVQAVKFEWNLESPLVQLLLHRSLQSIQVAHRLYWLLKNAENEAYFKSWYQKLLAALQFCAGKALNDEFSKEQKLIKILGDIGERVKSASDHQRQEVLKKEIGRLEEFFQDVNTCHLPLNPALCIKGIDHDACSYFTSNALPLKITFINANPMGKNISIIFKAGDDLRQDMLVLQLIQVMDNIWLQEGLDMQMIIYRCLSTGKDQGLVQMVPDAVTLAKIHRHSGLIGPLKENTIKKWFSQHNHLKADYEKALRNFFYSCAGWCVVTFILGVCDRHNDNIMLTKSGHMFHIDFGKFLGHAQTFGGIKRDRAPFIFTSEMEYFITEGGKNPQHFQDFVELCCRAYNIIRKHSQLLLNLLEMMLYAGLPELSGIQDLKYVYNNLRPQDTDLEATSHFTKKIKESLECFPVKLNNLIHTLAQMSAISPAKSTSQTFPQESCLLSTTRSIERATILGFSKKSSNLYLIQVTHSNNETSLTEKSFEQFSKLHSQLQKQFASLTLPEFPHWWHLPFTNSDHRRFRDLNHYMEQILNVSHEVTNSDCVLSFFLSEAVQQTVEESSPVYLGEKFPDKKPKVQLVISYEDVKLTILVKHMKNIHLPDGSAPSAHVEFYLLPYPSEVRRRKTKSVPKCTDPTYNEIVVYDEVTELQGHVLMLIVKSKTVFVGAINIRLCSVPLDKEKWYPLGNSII

Study 1 — cell line: A-375; tested at: 100 µM; time: 36 h; measurement: viability
SMILES = Nc1ncn([C@@H]2O[C@H](CO)[C@@H](O)[C@H]2O)c(=O)n1; value = 35.4%
SMILES = CC(=O)Oc1cc2c(s1)CCN(C(C(=O)C1CC1)c1ccccc1F)C2 (stereo not shown); value = 105%
SMILES = CCCNC(C)C(=O)Nc1ccccc1C (stereo not shown); value = 109%
SMILES = NC[C@@H]1O[C@H](O[C@H]2[C@@H](O)[C@H](O[C@@H]3[C@@H](O)[C@H](N)C[C@H](N)[C@H]3O[C@H]3O[C@H](CN)[C@@H](O)[C@H](O)[C@H]3N)O[C@@H]2CO)[C@H](N)[C@@H](O)[C@@H]1O; value = 108%
SMILES = O=C(O)CSCC(=O)NC1CCSC1=O (stereo not shown); value = 68.2%
SMILES = CCC(C)n1ncn(-c2ccc(N3CCN(c4ccc(OC[C@H]5CO[C@](Cn6cncn6)(c6ccc(Cl)cc6Cl)O5)cc4)CC3)cc2)c1=O (mixture of isomers); value = 102%
SMILES = CC[C@H]1OC(=O)[C@H](C)[C@@H](O[C@H]2C[C@@](C)(OC)[C@@H](O)[C@H](C)O2)[C@H](C)[C@@H](O[C@@H]2O[C@H](C)C[C@H](N(C)C)[C@H]2O)[C@](C)(O)C[C@@H](C)/C(=N\OCOCCOC)[C@H](C)[C@@H](O)[C@]1(C)O; value = 97.1%

Study 2 — species: human; medium: microsomes or S9; tested at: 2 µM; time: 0.5 h; measurement: remaining compound
Structure (SMILES) = CC(=O)c1ccc(S(=O)(=O)N(CCCO)Cc2cc3c(C)cc(C)cc3[nH]c2=O)cc1; value = 29.5%
Structure (SMILES) = Nc1cccc(Nc2nc(Cl)nc3[nH]ccc23)c1; value = 59.7%
Structure (SMILES) = O=C1CC(C2CCCCC2)c2cnn(Cc3cccs3)c2N1 (stereo not shown); value = 6.81%
Structure (SMILES) = Cc1cc(Cl)nc(NCCCc2nc(C(C)C)no2)n1; value = 27.3%
Structure (SMILES) = CCc1nc(Cl)c2c3c(sc2n1)CC(C)CC3 (stereo not shown); value = 1.82%
Structure (SMILES) = CC1(C)CC(=O)c2c(O)cc(OCC(=O)c3ccc(N4CCCC4)cc3)cc2O1; value = 12.1%

Study 3 — effect on: enzyme activity; mode: inhibitor; tested at: 0.5 µM; reference: control; measurement: remaining activity
Target: Fibroblast growth factor receptor 4 (FGFR4, Homo sapiens, UniProt P22455)
UniProt P22455, sequence (whole entry, looked up): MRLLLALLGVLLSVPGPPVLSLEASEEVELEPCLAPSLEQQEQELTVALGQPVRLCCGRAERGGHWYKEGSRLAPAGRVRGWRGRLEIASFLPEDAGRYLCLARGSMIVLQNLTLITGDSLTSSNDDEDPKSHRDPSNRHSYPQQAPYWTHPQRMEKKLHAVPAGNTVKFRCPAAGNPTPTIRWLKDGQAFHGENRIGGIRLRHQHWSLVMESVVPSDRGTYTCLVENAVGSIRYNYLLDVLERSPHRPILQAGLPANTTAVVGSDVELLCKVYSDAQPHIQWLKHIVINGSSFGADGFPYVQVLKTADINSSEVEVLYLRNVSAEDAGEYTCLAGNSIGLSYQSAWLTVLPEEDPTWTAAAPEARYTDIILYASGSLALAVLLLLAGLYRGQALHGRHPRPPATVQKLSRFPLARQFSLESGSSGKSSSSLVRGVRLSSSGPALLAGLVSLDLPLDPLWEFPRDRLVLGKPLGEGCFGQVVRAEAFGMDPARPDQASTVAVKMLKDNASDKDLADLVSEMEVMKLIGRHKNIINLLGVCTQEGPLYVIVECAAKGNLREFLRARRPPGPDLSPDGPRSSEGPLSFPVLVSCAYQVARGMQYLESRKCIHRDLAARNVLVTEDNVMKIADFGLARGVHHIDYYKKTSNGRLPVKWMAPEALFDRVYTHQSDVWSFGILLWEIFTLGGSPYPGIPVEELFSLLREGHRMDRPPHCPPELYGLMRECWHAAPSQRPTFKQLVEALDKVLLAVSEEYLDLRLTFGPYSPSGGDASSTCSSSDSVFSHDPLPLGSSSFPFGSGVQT
SMILES = O=S(=O)(c1cccc2cnccc12)N1CCCNCC1; value = 82.8%
SMILES = COc1ccc(OC)c2c(=S)c3ccccc3[nH]c12; value = 91.1%
SMILES = CC(C)[C@H](CO)Nc1nc(Nc2cc(N)cc(Cl)c2)c2ncn(C(C)C)c2n1; value = 93.4%
SMILES = O=C(O)c1ccc2c3c1cccc3c(=O)n1c3ccccc3nc21; value = 88.6%
SMILES = Cc1nc(-c2ccccc2)c(-c2ccncc2)o1; value = 76.5%
SMILES = O=C(CCCc1ccc(-c2ccccc2F)cc1)Nc1ccc(O)cc1; value = 106%
SMILES = COc1ccc(CNC(=O)Nc2ncc([N+](=O)[O-])s2)cc1; value = 98.9%
SMILES = O=C(Nc1cccc(Nc2cc(Nc3cccc(C(F)(F)F)c3)ncn2)c1)C1CC1; value = 102%
SMILES = C#Cc1cccc(Nc2ncnc3cc(OCCOC)c(OCCOC)cc23)c1; value = 93.3%
SMILES = COc1cc2nccc(Oc3ccc(NC(=S)NC(=O)c4ccccc4C)cc3)c2cc1OC; value = 92.9%
SMILES = Nc1ccc2ncnc(NCCc3ccc(Oc4ccccc4)cc3)c2c1; value = 104%
SMILES = COc1cc2ncnc(Nc3ccc(F)c(Cl)c3)c2cc1OCCCN1CCOCC1; value = 92.4%
SMILES = Oc1ccc(-c2nc(-c3ccncc3)c(-c3ccc(F)cc3)[nH]2)cc1; value = 92.9%
SMILES = COc1ccc(C(=O)Nc2sc3c(c2C(N)=O)CCCC3)cc1OC; value = 105%
SMILES = O=C1NC(=O)C(c2cn(CCCO)c3ncccc23)=C1c1cnccn1; value = 91.5%
SMILES = CCOC(=O)c1c(C)[nH]c(/C=C2\C(=O)Nc3ccccc32)c1C; value = 82.4%

Study 4 — method: competition with immobilised ligand; tested at: 1 µM; measurement: remaining binding
Structure (SMILES): CNC(=O)Nc1ccc2c(c1)[C@@]1(CC2)OC(=O)N(CC(=O)N(Cc2ccc(F)cc2)[C@@H](C)C(F)(F)F)C1=O
target = PIK3C2G (Homo sapiens, UniProt O75747); effect on = cell-free assay; value = 97%
target = MARK1 (Homo sapiens, UniProt Q9P0L2); effect on = cell-free assay; value = 100%
target = DCLK1 (Homo sapiens, UniProt O15075); effect on = cell-free assay; value = 76%
target = MAP3K12 (Homo sapiens, UniProt Q12852); effect on = cell-free assay; value = 100%
target = CDKL2 (Homo sapiens, UniProt Q92772); effect on = cell-free assay; value = 83%
target = ACVRL1 (Homo sapiens, UniProt P37023); effect on = binding; value = 78%
target = FGR (Homo sapiens, UniProt P09769); effect on = cell-free assay; value = 88%
target = MAP3K20 (Homo sapiens, UniProt Q9NYL2); effect on = cell-free assay; value = 93%

For quick reference, copied from above (study 3):
SMILES = COc1ccc(CNC(=O)Nc2ncc([N+](=O)[O-])s2)cc1; value = 98.9%
SMILES = O=C(Nc1cccc(Nc2cc(Nc3cccc(C(F)(F)F)c3)ncn2)c1)C1CC1; value = 102%
SMILES = C#Cc1cccc(Nc2ncnc3cc(OCCOC)c(OCCOC)cc23)c1; value = 93.3%
SMILES = COc1cc2nccc(Oc3ccc(NC(=S)NC(=O)c4ccccc4C)cc3)c2cc1OC; value = 92.9%
